Published values of several laboratories.
Compare with care: the assays were run in different laboratories. ± gives the spread as reported.
B1: UGT1A9 (Homo sapiens, UniProt O60656); chain GKLLVVPMDGSHWFTMRSVVEKLILRGHEVVVVMPEVSWQLGRSLNCTVKTYSTSYTLEDLDREFKAFAHAQWKAQVRSIYSLLMGSYNDIFDLFFSNCRSLFKDKKLVEYLKESSFDAVFLDPFDNCGLIVAKYFSLPSVVFARGILCHYLEEGAQCPAPLSYVPRILLGFSDAMTFKERVRNHIMHLEEHLLCHRFFKNALEIASEILQTPVTEYDLYSHTSIWLLRTDFVLDYPKPVMPNMIFIGGINCHQGKPLPMEFEAYINASGEHGIVVFSLGSMVSEIPEKKAMAIADALGKIPQTVLWRYTGTRPSNLANNTILVKWLPQNDLLGHPMTRAFITHAGSHGVYESICNGVPMVMMPLFGDQMDNAKRMETKGAGVTLNVLEMTSEDLENALKAVINDKSYKENIMRLSSLHKDRPVEPLDLAVFWVEFVMRHKGAPHLRPAAHDLTWYQYHSLDVIGFLLAVVLTVAFITFKCCAYGYRKCLGKKGRVKKAHKSKTH
B2: erenumab; V domains shown; sequence looked up; VH QVQLVESGGGVVQPGRSLRLSCAASGFTFSSFGMHWVRQAPGKGLEWVAVISFDGSIKYSVDSVKGRFTISRDNSKNTLFLQMNSLRAEDTAVYYCARDRLNYYDSSGYYHYKYYGMAVWGQGTTVTVSS; VL QSVLTQPPSVSAAPGQKVTISCSGSSSNIGNNYVSWYQQLPGTAPKLLIYDNNKRPSGIPDRFSGSKSGTSTTLGITGLQTGDEADYYCGTWDSRLSAVVFGGGTKLTVL
UniProt Q8MQJ9, sequence (whole entry, looked up): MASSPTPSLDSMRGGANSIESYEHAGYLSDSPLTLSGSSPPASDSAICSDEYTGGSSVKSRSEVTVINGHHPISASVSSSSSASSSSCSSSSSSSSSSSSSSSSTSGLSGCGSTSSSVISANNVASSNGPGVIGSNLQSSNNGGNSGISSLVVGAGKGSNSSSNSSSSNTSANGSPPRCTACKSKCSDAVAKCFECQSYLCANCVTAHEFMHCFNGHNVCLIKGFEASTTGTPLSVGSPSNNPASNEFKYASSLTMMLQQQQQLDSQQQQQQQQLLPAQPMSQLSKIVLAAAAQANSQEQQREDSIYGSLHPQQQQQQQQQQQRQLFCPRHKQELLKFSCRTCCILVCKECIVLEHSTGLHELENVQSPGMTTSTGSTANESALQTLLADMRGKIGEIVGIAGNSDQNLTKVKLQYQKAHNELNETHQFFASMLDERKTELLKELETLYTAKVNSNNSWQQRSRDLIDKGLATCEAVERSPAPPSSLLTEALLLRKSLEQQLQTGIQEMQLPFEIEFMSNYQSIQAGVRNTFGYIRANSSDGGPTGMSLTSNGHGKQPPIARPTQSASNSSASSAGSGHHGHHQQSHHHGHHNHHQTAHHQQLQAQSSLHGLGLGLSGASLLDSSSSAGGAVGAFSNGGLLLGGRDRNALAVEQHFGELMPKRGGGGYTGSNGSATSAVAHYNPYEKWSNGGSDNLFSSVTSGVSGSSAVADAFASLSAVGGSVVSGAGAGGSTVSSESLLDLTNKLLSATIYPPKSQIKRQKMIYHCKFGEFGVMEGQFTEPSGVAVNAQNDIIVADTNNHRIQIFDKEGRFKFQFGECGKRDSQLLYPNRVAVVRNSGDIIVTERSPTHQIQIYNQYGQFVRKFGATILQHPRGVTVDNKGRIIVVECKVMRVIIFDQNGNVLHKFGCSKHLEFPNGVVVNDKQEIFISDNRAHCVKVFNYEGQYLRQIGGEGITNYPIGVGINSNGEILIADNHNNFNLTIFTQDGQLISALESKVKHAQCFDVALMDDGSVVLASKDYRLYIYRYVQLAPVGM
UniProt Q9UNE7, sequence (whole entry, looked up): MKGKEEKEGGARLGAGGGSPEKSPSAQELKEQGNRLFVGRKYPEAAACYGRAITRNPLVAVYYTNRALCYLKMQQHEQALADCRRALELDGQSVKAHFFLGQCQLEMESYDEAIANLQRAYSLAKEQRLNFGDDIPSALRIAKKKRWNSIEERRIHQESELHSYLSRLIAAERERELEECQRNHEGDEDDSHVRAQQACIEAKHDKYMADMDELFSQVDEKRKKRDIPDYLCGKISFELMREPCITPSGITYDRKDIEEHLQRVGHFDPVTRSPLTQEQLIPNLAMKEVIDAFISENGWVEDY

Substance | target or system | test | test system | setting | how to read | endpoint | value
GGGAGACCUAGCCUCAUAUAAUCGUUGUCCAGAAUUGUAUAUAUUCGUAGCAUAAGUUUUCCAAACAUUAUUUUGUUGUCGAAAAUUGUACAUAAGCCAAUUAAGCCGCUAAUUCU (ssRNA) | brat 756-1037 (Drosophila melanogaster, UniProt Q8MQJ9) | competition |  |  |  | binding | binds
COc1cccc2c1C(=O)c1c(O)c3c(c(O)c1C2=O)C[C@@](O)(C(=O)CO)C[C@@H]3O[C@H]1C[C@H](NC(=O)[C@@H]2CCCN2C(=O)CN)[C@H](O)[C@H](C)O1 |  |  | mouse, E0771 tumour-bearing, tumor | intravenous, 92 µmol/kg PhAc-ALGP-Dox |  | AUC | 59.6 µM·h
teriparatide |  | ELISA | healthy women | sc, 20 µg single dose, reference product, arithmetic mean |  | elimination rate constant | 1.11 ± 0.331 h⁻¹
B1 (UGT1A9) | O=c1cc(-c2ccccc2)oc2cc(O)cc(O)c12 | steady-state kinetics |  | pH 7.4, 37 °C |  | Vmax/Km | 18100 µL/min/mg
COc1cccc2c1C(=O)c1c(O)c3c(c(O)c1C2=O)C[C@@](O)(C(=O)CO)C[C@@H]3O[C@H]1C[C@H](NC(=O)[C@@H]2CCCN2C(=O)CNC(=O)[C@@H](N)CC(C)C)[C@H](O)[C@H](C)O1 |  |  | mouse, E0771 tumour-bearing, kidney | intravenous, 92 µmol/kg PhAc-ALGP-Dox |  | AUC | 3.7 µM·h
rnpA F107W (Bacillus subtilis) |  | NMR, item: His22 |  | 25 °C, 0.15 M NaCl, sulfate-bound folded state, numbering of the source, with: 20 mM Na2SO4 |  | pKa | 5.95
insulin icodec |  |  | human type 2 diabetes, serum | subcutaneous, 175 U, 840 h, with: 0.5 mg semaglutide |  | AUC(0-t) | 20.3 µM·h
CC(C)[C@H](NC(=O)[C@@H]1CCCN1C(=O)[C@H](CCCNC(=N)N)NC(=O)[C@H](CS)NC(=O)[C@H](Cc1c[nH]c2ccccc12)NC(=O)[C@H](CCCNC(=N)N)NC(=O)[C@@H](Cc1ccccc1)NC(=O)[C@H](Cc1c[nH]cn1)NC(=O)[C@H](CCC(=O)O)NC(=O)[C@H](CS)NC(=O)[C@H](CS)NC(=O)[C@H](CCCCN)NC(=O)[C@@H]1CC(=O)N[C@@H](CCCNC(=N)N)C(=O)N[C@@H](C)C(=O)N[C@@H](CC(=O)O)C(=O)N[C@H](Cc2ccc(O)cc2)C(=O)N1)C(N)=O [technetium-99m labelled] |  |  | C57 mice, kidneys | intravenous, 0.037 MBq, 2 h |  | tissue uptake | 93 ± 21.7 %ID/g
human Hsc70 | STUB1 (Homo sapiens, UniProt Q9UNE7) | binder, biolayer interferometry |  | pH 7.4, 25 °C |  | kon | 87000 ± 4000 M⁻¹ s⁻¹
insulin aspart |  |  | obese type 2 diabetes patients, serum | subcutaneous, 0.2 U/kg, geometric mean |  | AUC(0-1 h) | 0.000138 µM·h
rat amylin | IAPP (Homo sapiens, UniProt P10997) | ThT fluorescence |  | 6 molar equivalents, pH 7.2, 2% HFIP |  | aggregation lag time | 93 min
insulin degludec |  | ELISA | human moderate renal impairment, serum | dose not given, single dose | relative to: impaired over normal renal function | AUC(0-inf) ratio | 1.11
insulin aspart |  | UPLC-MS/MS | human, healthy subjects, plasma | subcutaneous, 0.2 U/kg single dose, 6 h, euglycaemic clamp |  | AUC(0-t) | 7.79 ng·h/mL
TPDYLMQLMNDKKLMSSLPNFSGIFNHLERALDEEISRVRKDMYNDTLNGSTEK (Qki 14-67 C35S/L44A (Mus musculus, UniProt Q9QYS9)) | itself | CD thermal melting |  | 50 µM |  | melting temperature | 37 °C
amyloid-β(1-40) |  |  | self-aggregation | without clusterin |  | ΔG° of larger oligomer formation | -9.39 ± 0.717 kcal/mol
B2 (erenumab) | CALCRL/RAMP1 on cells (Homo sapiens) | cAMP production, antagonist, Schild analysis | antibody, HEK293S | with: αCGRP |  | pKB | 8.64
CSCC[C@H](NC(=O)[C@H](CC(C)C)NC(=O)[C@H](Cc1c[nH]cn1)NC(=O)CNC(=O)[C@@H](NC(=O)[C@H](C)NC(=O)[C@H](Cc1c[nH]c2ccccc12)NC(=O)[C@H](CCC(N)=O)NC(=O)CCCCCNC(=O)[C@H](CCC(=O)NCCCC[C@@H]1NC(=O)[C@@H](Cc2ccc(O)cc2)NC(=O)[C@H](CC(=O)O)NC(=O)CNC(=O)[C@H](CCCNC(=N)N)NC1=O)NC(=O)CN1CCN(CC(=O)O)CCN(CC(=O)O)CC1)C(C)C)C(N)=O [copper-64 labelled] |  |  | ICR SCID mouse, female, spleen | intravenous, 750 kBq, 24 h |  | tissue uptake | 0.63 ± 0.17 %ID/g
insulin |  | HPLC-UV | diabetic rat, plasma | oral, 40 IU/kg |  | Cmax | 4200 ± 6.55e+06 ng/mL
NPH insulin |  | radioimmunoassay, item: insulin | female non-fasted rat, serum | 5 IU/kg, 1 to 24 h, dose 189 |  | Cmax | 1160 µIU/mL
Insulin human |  | ELISA | rat, hippocampus | intranasal, 20 µg per nostril, 15 min |  | concentration | 141 ± 82.6 pg/mg tissue
